Results gathered from unrelated publications.
A part holds a random share of what one study measured. Changes are numbered by the printed parent chain.

Series 1
Target: Histone acetyltransferase KAT6A, both winged helices, GST fusion (KAT6A, Homo sapiens, UniProt Q92794, residues 1-181)
Method: protein binding microarray
Molecule type: double-stranded DNA, one strand shown
Sample: in vitro
Concentration: not given
Setting: 8-mer, flanks averaged, mean of 2 arrays, mostly near background
Reference: not given
Direction: higher = stronger binding
Endpoint: E-score
Target sequence (chain): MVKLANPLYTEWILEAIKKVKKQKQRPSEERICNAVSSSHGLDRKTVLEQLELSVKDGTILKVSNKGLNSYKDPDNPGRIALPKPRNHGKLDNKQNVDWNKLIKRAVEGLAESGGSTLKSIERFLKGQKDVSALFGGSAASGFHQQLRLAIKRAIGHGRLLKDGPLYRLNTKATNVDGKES
ACGAACGA: -0.0909
CTTTATGA: -0.171
CGGGTAAC: 0.24
CGAACCAC: 0.079
AACAGATG: -0.128
ACACACGC: 0.119
AGGTAGGG: -0.366
GGCACCTA: 0.0075
ATTCCTAA: -0.147
GGCCCCTA: -0.123
AATTAACA: -0.134
ACGCGTGA: 0.258
AGACTCGA: 0.000975
CGACCTTC: 0.086
AAGACATT: 0.0815
CTCAGGAC: -0.124
CAATGTAC: -0.115

Series 2
Target: Phosphate system positive regulatory protein PHO4, full length, GST-tagged (PHO4, Saccharomyces cerevisiae, UniProt P07270, residues 1-312)
Method: competition protein-binding microarray
Molecule type: double-stranded DNA, one strand shown
Sample: in vitro
Concentration: 2 µM
Setting: whole 60-bp probe, lowest competitor level
Added: Cbf1 competitor, 0.05 µM
Direction: higher = stronger binding
Endpoint: fluorescence intensity
Target sequence (chain): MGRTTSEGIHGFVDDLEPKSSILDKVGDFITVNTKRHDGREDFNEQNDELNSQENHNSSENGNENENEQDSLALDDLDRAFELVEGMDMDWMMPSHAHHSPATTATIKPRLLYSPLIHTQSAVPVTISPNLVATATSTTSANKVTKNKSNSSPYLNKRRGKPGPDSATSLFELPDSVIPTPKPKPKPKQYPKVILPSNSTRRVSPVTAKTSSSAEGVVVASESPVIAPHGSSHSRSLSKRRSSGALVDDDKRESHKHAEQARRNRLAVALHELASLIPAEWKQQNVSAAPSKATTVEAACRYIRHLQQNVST
TTTATCGTTTTCTGTGACGTGGCCGATGAGCACCAGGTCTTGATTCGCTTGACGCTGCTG: 5310 a.u.
ATAGACGTACTGTTACACGTGATGGCGAGGATAGCGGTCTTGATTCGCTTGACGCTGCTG: 13800 a.u.
AGCGTAATCTATACCCACGTAAACCCATTGAGATAAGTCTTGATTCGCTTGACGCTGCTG: 5290 a.u.
CATACCCAACCTTGAGTCGTGGGTGAAGATATTTGTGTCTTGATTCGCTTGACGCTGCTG: 7950 a.u.
GTCTTGTCTCATTGCAACGTGGGTGTCCCCACTTCAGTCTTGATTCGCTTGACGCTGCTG: 12100 a.u.
GTACAATAACATATGCACATGGCAACGGGTCTTGGTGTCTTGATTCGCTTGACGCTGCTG: 12100 a.u.
TGTACCGGGTGGGACGTCGTGCAAAGAATCAGAAGTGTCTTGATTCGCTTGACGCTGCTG: 8120 a.u.
GTAACAGGTTTCCATCACGTGCTTTTTAGGGTTTTGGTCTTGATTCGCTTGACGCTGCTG: 17700 a.u.
CCGGGAAATCGCTGGCACGCACAGCATATAGAGTAGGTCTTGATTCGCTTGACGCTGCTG: 12000 a.u.
CTAACGAAGGTTTGCGGGGTGGGTGACAAGCCAAGTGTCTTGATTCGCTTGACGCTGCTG: 4590 a.u.
CTTCTGTAAATTTGTTGGGTGGGTGGACGCGCCCCGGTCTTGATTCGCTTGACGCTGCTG: 4430 a.u.
AAAGCGGTAATTTGCCTTGTGGGTGCAGATATCTATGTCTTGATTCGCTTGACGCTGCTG: 5840 a.u.
GCACCACACAGGTTTTACGTGCGGACAAGACCGTTGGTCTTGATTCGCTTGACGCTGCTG: 5270 a.u.
GAAAATGCTAATGCCCATGTGCGACTCATTCCGTTAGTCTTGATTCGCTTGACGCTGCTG: 11300 a.u.
CTATCCACCAATATGCTCGTGGGTAACATCTAGAGAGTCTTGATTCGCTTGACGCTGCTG: 10900 a.u.
CTTTCCCGATCTTGTTTAGTGGGTGTAGCACATTTGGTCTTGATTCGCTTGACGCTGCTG: 4640 a.u.
GTCTTGTCTCATTGTCACCGGACTTTCCCCACTTCAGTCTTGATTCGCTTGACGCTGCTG: 3900 a.u.
TAATCCTCAACACTACCCGTGGTGAATGTCCTAAAGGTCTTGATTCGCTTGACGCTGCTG: 7470 a.u.
TACCTTAACCCCGGCACCGTGCGATGCAGATCCGCCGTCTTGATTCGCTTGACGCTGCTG: 8030 a.u.

Series 3
Target: CCNA2, cyclin fold, Cln2 fusion (human)
Method: yeast growth competition, sequencing
Sample: yeast
Setting: strong parent motif
Reference: not given
Direction: higher = stronger binding
Endpoint: normalised enrichment score
Starting sequence: RB1 docking peptide (human); PKPLKKLRFDIEG
K2S: 1.05
P3D: 0.72
L7D: -0.343
R8T: 1.57
K6N: 0.383
P3C: 5.41
K6A: 1.38
D10P: 1.19
L7H: 0.984
K6H: 1.59
K5R F9L: 0.554
K2H: 0.219
L7F: 0.0879
K2C: 0.944
K2D: 0.0455
K6T: 0.873
G13F: 0.725
I11D: 1.01
L4I: 2.03
E12S: 1.2
L4E: 0.723
I11V: 1.19
F9Y: 0.375
K5F: -0.257
R8L: 0.912

Series 4
Target: RING finger protein unkempt homolog, zinc fingers 1-6, SBP tag (UNK, Homo sapiens, UniProt Q9C0B0, residues 30-357)
UniProt Q9C0B0, sequence (30-357, looked up): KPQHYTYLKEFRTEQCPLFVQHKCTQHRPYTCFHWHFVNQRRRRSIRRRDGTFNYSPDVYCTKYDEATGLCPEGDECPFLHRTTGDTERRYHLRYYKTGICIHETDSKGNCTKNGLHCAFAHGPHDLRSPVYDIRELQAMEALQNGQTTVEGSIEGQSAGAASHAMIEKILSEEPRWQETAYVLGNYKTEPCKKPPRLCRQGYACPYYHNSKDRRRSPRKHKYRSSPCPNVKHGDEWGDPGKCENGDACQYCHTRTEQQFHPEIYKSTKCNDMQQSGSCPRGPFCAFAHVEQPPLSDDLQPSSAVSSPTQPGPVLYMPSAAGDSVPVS
Method: RNA Bind-n-Seq
Molecule type: RNA
Sample: in vitro
Concentration: 100 nM
Setting: RNA with constant flanks, vertebrate orthologous sites, ends assumed
Reference: input RNA pool
Direction: higher = stronger binding
Endpoint: bound/input enrichment
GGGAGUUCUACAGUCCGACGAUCUCCUCUCAACCCCAUUUCUUCUGUUUCAUAGUGCAGAAGUAUUCUUUUCACCUGUAUCUUUAGUGGACUUGUUUUAAUUUUAGAGGAAUUUCCAGGACAGACACUGUGAGCUGACAUGGGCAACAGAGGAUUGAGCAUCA: 1.16 ratio
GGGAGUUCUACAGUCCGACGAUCACCCCGAUUUUAGAUGUGAUAUAUAGGCUUUCAUUCCAGUUUGUUUUGUCUUUUCUUGUUUAGAUAUCAACCUUUUAAAUUCUUGCAUUUUAGUAAGAAAGCUAUCUUUUUAUGGAUGUUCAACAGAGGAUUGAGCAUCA: 0.994 ratio
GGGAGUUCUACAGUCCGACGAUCAAAACCCCGAUUUUAGAUGUGAUAUUUAGGCUUUCAUUCCAGUUUGUUUUGUUUUUUGUUUAGAUACCAAUCUUUUAAAUUCUUGCAUUUUAGUAAGAAAGCUAUCUUUUUAUGGAUGUUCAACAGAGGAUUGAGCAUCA: 0.961 ratio
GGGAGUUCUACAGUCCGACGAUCCGGCUCCAUGGUGGAGGGCUCCGAGCUCAAGAAGGUGCGCUCCAACUCCAGGAUUUACCACCGGUAUUUCCUCCUGGACGCCGACAUGCAGAGCCUGAGGUGGGAGCCGUCCAAGAAGGACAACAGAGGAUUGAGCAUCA: 0.207 ratio
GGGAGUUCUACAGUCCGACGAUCAAGGUGUGCUCUUUGGGGAGCUGCUGGCCGCUUAGCAUUGUUUGAUUUAUGACCUUGACAUAAUAGAUAGGCUCGUGGUUUUUUUAAUUUAAAGAUGUUAAGACUUAAUUCACUAAAAUUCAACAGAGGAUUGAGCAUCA: 0.64 ratio
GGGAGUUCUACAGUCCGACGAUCACACUUGCAUUGUGGCGCAUAGACGACAUGGAAGUAGACCAGCUCUGCUGAUUUGAAACUUAGAUUUUUAAUUAUGUACUGGGGACAGGUUUUUGUCGCUUUACAUUGCUUCCUAGUUUACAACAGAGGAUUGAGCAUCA: 2.26 ratio
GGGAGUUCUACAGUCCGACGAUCUUGUGUUUGUUUUGCACAUGGCAGUGUAUAUUGAGGAUCUUCUGAGGAGGAAGGGGUGCCUAGCGGUGGUGCCUGGGCUCCCGGCCUCUAGCGCCCCACCCGCCUCAGCACCCUGCCUGGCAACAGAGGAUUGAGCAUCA: 0.371 ratio
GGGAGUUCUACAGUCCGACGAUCUGGGUUAUUCCUAUUAUUAUCAAGUAGCUGGAAUUGUGAAGGUCGGAGUAGUUAGAGCUUUAGCUUUUAUUCCUUAUUUUUUUGUAUUACUAUCCAUGUGUAUAAAUUAUUGAUCAUGUUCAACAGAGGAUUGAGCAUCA: 1.63 ratio

Repeated from above (series 4):
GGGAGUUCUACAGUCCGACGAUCUCCUCUCAACCCCAUUUCUUCUGUUUCAUAGUGCAGAAGUAUUCUUUUCACCUGUAUCUUUAGUGGACUUGUUUUAAUUUUAGAGGAAUUUCCAGGACAGACACUGUGAGCUGACAUGGGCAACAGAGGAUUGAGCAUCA: 1.16 ratio
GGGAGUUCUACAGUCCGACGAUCACCCCGAUUUUAGAUGUGAUAUAUAGGCUUUCAUUCCAGUUUGUUUUGUCUUUUCUUGUUUAGAUAUCAACCUUUUAAAUUCUUGCAUUUUAGUAAGAAAGCUAUCUUUUUAUGGAUGUUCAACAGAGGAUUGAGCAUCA: 0.994 ratio
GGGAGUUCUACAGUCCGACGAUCAAAACCCCGAUUUUAGAUGUGAUAUUUAGGCUUUCAUUCCAGUUUGUUUUGUUUUUUGUUUAGAUACCAAUCUUUUAAAUUCUUGCAUUUUAGUAAGAAAGCUAUCUUUUUAUGGAUGUUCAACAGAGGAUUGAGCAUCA: 0.961 ratio
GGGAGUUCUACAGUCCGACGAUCCGGCUCCAUGGUGGAGGGCUCCGAGCUCAAGAAGGUGCGCUCCAACUCCAGGAUUUACCACCGGUAUUUCCUCCUGGACGCCGACAUGCAGAGCCUGAGGUGGGAGCCGUCCAAGAAGGACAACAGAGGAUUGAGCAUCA: 0.207 ratio
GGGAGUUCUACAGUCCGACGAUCAAGGUGUGCUCUUUGGGGAGCUGCUGGCCGCUUAGCAUUGUUUGAUUUAUGACCUUGACAUAAUAGAUAGGCUCGUGGUUUUUUUAAUUUAAAGAUGUUAAGACUUAAUUCACUAAAAUUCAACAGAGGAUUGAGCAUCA: 0.64 ratio
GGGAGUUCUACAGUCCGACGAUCACACUUGCAUUGUGGCGCAUAGACGACAUGGAAGUAGACCAGCUCUGCUGAUUUGAAACUUAGAUUUUUAAUUAUGUACUGGGGACAGGUUUUUGUCGCUUUACAUUGCUUCCUAGUUUACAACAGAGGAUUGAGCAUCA: 2.26 ratio
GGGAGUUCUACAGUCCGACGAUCUUGUGUUUGUUUUGCACAUGGCAGUGUAUAUUGAGGAUCUUCUGAGGAGGAAGGGGUGCCUAGCGGUGGUGCCUGGGCUCCCGGCCUCUAGCGCCCCACCCGCCUCAGCACCCUGCCUGGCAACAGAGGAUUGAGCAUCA: 0.371 ratio
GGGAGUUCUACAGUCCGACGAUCUGGGUUAUUCCUAUUAUUAUCAAGUAGCUGGAAUUGUGAAGGUCGGAGUAGUUAGAGCUUUAGCUUUUAUUCCUUAUUUUUUUGUAUUACUAUCCAUGUGUAUAAAUUAUUGAUCAUGUUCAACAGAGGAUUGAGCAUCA: 1.63 ratio
